Experimental data gathered from unrelated publications.
Parts stem from different laboratories: compare values within a part only.

Sample 1
Target: Sal-like protein 4, full length isoform B (SALL4, Homo sapiens, UniProt Q9UJQ4-2, residues 1-616)
Technique: universal PBM
Form: double-stranded DNA, one strand shown
Sample: in vitro
Concentration: not given
Notes: 8-mer, flanks averaged, mean of replicates
Reading: higher = stronger binding
Quantity: E-score
Construct (chain): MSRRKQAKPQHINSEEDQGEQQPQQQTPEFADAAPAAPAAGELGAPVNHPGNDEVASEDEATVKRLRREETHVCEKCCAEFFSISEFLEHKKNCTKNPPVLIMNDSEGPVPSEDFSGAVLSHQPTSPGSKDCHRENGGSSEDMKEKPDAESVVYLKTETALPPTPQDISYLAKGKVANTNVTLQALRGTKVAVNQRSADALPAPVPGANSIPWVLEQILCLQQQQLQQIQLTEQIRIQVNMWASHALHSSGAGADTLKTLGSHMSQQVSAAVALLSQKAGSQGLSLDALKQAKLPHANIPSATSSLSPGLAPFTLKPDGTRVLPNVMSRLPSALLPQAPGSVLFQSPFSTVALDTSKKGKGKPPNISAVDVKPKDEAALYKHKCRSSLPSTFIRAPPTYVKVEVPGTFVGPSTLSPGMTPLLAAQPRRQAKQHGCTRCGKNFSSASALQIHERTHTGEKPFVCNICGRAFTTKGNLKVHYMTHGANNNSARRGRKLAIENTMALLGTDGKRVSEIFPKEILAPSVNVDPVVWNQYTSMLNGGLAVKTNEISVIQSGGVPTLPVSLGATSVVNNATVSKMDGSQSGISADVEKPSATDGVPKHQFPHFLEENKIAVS
Oligonucleotide = ACATCCCA; result = -0.107
Oligonucleotide = ACTGCGAA; result = -0.0281
Oligonucleotide = ATCGTTAC; result = 0.0795
Oligonucleotide = GTTTCTCA; result = -0.00757
Oligonucleotide = CCTTAGTC; result = -0.0992
Oligonucleotide = GCCCTTGA; result = -0.203
Oligonucleotide = AACTTATG; result = 0.307
Oligonucleotide = CGAGCCCG; result = -0.235
Oligonucleotide = CGGAGCTC; result = -0.251
Oligonucleotide = TCAGCTAA; result = 0.0638
Oligonucleotide = GTGTGTGA; result = -0.0726
Oligonucleotide = CAAGGAAC; result = -0.0575
Oligonucleotide = CCTACTAC; result = -0.09
Oligonucleotide = CAGCCCGG; result = -0.313
Oligonucleotide = GTCCAAAA; result = 0.189
Oligonucleotide = CTGAACCA; result = -0.129
Oligonucleotide = CACCACGC; result = -0.182
Oligonucleotide = GACGAGTA; result = 0.0192
Oligonucleotide = ACGAAGAC; result = -0.118
Oligonucleotide = CATTCGGA; result = 0.0262
Oligonucleotide = CGTTCGGC; result = -0.186
Oligonucleotide = AATCAGAG; result = 0.0479
Oligonucleotide = CAATCCAC; result = 0.0495

Sample 2
Target: RNA binding protein fox-1 homolog 2, RRM domain, GST-SBP tag (RBFOX2, Homo sapiens, UniProt O43251-10, residues 100-194)
Technique: RNA Bind-n-Seq
Form: RNA
Sample: in vitro
Concentration: 365 nM
Notes: natural RNA segment, single round, ends assumed
Relative to: no-protein control
Reading: higher = stronger binding
Quantity: RBNS enrichment (R)
Shared flanks, not repeated: GGGAGUUCUACAGUCCGACGAUC … UGGAAUUCUCGGGUGCCAA
Target sequence (chain): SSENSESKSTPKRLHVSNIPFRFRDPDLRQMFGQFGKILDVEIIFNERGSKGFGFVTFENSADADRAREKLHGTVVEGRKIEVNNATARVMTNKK
Oligonucleotide = UUUAUGCCCGGUACACACAACAUAUGUUCAGUUGUUCUUAACUACUUUUGUCAUUUGUUUUUUGGAGUAGUUUUGAAAAGUGUCUAUAUUGAGUACACUAUUGCUGUCCA; result = 0.755
Oligonucleotide = GGAAGGCUCCUGGAGGGCAGCCCUACCUCUCCCAUGCCCUUUGCCCUCCUCCCUCGCCUCCAGUGGAGGCUGAGCUGACCCUGGGCUGCUGGAGGCCAGACUGGGCUGUA; result = 0.405
Oligonucleotide = CCAUCAGUCAUCUAACAACAAAGAUACAUUAUUCACUCAUUGUCACCUCUGAGGCUUCUAUCAUAACAGAAUACUGUGUGUGUAAAGGAAUGAGACUGCUUUUAAAGCAA; result = 0.582
Oligonucleotide = CUGGUUAGGAAUCACAGCUGUAAAAUUGAUUUCAGUUCAUCACACUUCUUCAUGAUGUUGCCCCUAAAUUUUGCACACUAUAUUCUUGUAUAUUAUUUCAAAUAAAUGGA; result = 0.51
Oligonucleotide = UGUAGAAGUUGAAAAAUGAUUGCUAUAUUUCAAUGUUUAUUCCCACUCAACAUACUGCCUUCUAAGCUUCCCUUUUUUUGUUCAAAGCAUGAUCUUAAAGAUAUGUUUAA; result = 1.64
Oligonucleotide = GGAAAGUGCCUGGGCUGUGCUUGUGACCGGCAGUACAGUGCCAUCCUGGAGGUGACUGGAGUAGCUGCUUUGCCAUUUCAUCACUGGGAUUCUGAACAGGCGCCAAGCUA; result = 1.01
Oligonucleotide = UGAAAGAAGCAUCCUGGAAACCAUGAAGUAUUCUACUAUGAAGGGCGCAUCUGCCCUGGUCAGCUGUUUCUCGAAGGGAGUGAUCUUAUCGAUAGAGGUAGAAAUGGUUU; result = 0.292
Oligonucleotide = GGGACUAUGGGAGAAUACUUUACUGUGAGUGGAAAAUGUUAGCACAUUUGACUGGUUUGCCCUGGAAUCCACUGCACCUUUACACUGCACCAUGAAACCUACACUCCCUG; result = 0.757

Sample 3
Target: RING finger protein unkempt homolog, zinc fingers 1-6, GST-SBP tag (UNK, Homo sapiens, UniProt Q9C0B0, residues 30-357)
Technique: RNA Bind-n-Seq
Form: RNA
Sample: in vitro
Concentration: not given
Notes: RNA with constant flanks, human-mouse chimeric sites, ends assumed
Relative to: input RNA pool
Reading: higher = stronger binding
Quantity: bound/input enrichment
Shared flanks, not repeated: GGGAGUUCUACAGUCCGACGAUC … CAACAGAGGAUUGAGCAUCA
Residues (chain): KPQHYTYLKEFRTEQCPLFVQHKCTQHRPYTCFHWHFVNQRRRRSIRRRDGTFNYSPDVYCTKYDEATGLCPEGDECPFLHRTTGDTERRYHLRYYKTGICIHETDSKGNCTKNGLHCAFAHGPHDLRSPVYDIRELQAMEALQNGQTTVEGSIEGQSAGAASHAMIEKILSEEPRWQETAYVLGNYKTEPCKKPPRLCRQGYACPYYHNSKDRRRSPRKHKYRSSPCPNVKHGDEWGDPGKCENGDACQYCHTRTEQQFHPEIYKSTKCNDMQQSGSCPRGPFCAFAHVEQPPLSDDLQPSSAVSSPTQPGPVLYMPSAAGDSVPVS
Oligonucleotide = UGUAGUUUCUUGAUUUAGUGGCUGGGCCUUUUCUUUCUUUCCUUUAGGAAAAGCCUAAAGAUUAGGUUGUAAGAAAAACAGAAGCCAUGUUUCGAAGACCUGUGUUAAUUACAGGUAGUC; result = 0.225 ratio
Oligonucleotide = AAAGUGAUGACUAUGUUUGUCCAACGACAGGUAUUUUCGGAGAGCAAAGAUGAGAUUGCGUUAGUCCUCUAUGGCACAGAUGGCACUGACAAUCCCCUUGCUGGCAAGGAUCAGUAUCAG; result = 0.17 ratio
Oligonucleotide = UAAAUCCUGUGCCAGCACUUCGCUCAUAAAGUUUUAAAUUCUGGACCAAUAGUGUUUGUUUCCUGAUUAUUGUAUCCAAUACUUUGCCUAGUAUGUAACUCACUCUUACUGAUAAUAAAA; result = 2.25 ratio
Oligonucleotide = GGUGGGGGGUUGUCAUUCGUUUGAGCUCUGCUGAUUCAUGAGUCGCCUUCAAAACUCUCGUGUAGGGUUGACAAUGUGGGGGGGUGGGGGAUCCAGCUUAUUCUUUUAUUUUCAAGUCCA; result = 1.11 ratio
Oligonucleotide = UGGCGCCUGCGCUCCCCGUUUUUAAAUUUAAGUGUAUUUUUAUAAGAUACAUGUAUUUACAAUUGAGUUUUUGAUUAAUAAUGCUGAAAUGCUACUGGAGAUUAUGAAAAAUGUUUCAAU; result = 0.747 ratio
Oligonucleotide = GCUCCUCCCCGCUCUGCAGCCUGGGGACACUGGGCUGGGACCAGAAUCCAGCUUUCUUUUAAAACUCUAUAUUUUUUUGUAUCCCGUUUUUUUCUUUUUUUUUUAAAUAGUGUAUUUUUU; result = 60.1 ratio
Oligonucleotide = CGCGUCCUCUCGCUGCUGCGGAGCCCGCCCAGCUGGGCAUUCCGGGACUGGUACCCUGCACACAGCCGCCUCUUCGAUCAAGCUUUCGGGGUGCCCCGGUUGCCCGAUGAGUGGUCGCAG; result = 0.095 ratio
Oligonucleotide = GGUGGGGUGGUCAUUGCCGUUUGAGCUGCUGAUUUUCUUAUGAAUCAUUCAAAACUCUCGUGUAGGGUUGACAAUGUGGGGGGGUGGGGGAUCCAGCUAUUUUUUUUAUUUUCAAGUCCA; result = 2.36 ratio

Sample 4
Target: Histone acetyltransferase KAT6A, winged helix 2, GST fusion (KAT6A, Homo sapiens, UniProt Q92794, residues 85-181)
Technique: protein binding microarray
Form: double-stranded DNA, one strand shown
Sample: in vitro
Concentration: not given
Notes: 8-mer, flanks averaged, mean of 2 arrays, mostly near background
Relative to: not given
Reading: higher = stronger binding
Quantity: E-score
Target sequence (chain): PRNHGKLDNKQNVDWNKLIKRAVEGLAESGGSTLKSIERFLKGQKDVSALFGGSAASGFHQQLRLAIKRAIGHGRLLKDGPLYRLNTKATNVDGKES
Oligonucleotide = ATTTATTG; result = -0.13
Oligonucleotide = AGAATAGG; result = -0.0337
Oligonucleotide = ATGAAAAA; result = 0.0377
Oligonucleotide = AGACAGAA; result = 0.108
Oligonucleotide = ACAACAAG; result = -0.0821
Oligonucleotide = GAATCTCC; result = 0.077
Oligonucleotide = CAGCTGCC; result = 0.115
Oligonucleotide = AGTCACCA; result = -0.125
Oligonucleotide = AAAATCGC; result = 0.0391
Oligonucleotide = AAGTCAGA; result = -0.0784
Oligonucleotide = AAGGTGTC; result = -0.0248
Oligonucleotide = AGACGTAC; result = -0.0814
Oligonucleotide = AGCTTCGG; result = 0.00869
Oligonucleotide = AGTTGCCG; result = -0.0326
Oligonucleotide = ACACAGCA; result = 0.153
Oligonucleotide = AAGTAGAA; result = -0.11
Oligonucleotide = AGACCAAT; result = -0.0831
Oligonucleotide = CAACGTCG; result = -0.0621
Oligonucleotide = ATGTATTG; result = -0.00625
Oligonucleotide = AGAGTACT; result = 0.0253
Oligonucleotide = CTGGACTC; result = -0.01
Oligonucleotide = AAGCGGGA; result = 0.208
Oligonucleotide = CTACCCAC; result = -0.0342

For quick reference, copied from above (sample 1):
Oligonucleotide = CAAGGAAC; result = -0.0575
Oligonucleotide = CTGAACCA; result = -0.129
Oligonucleotide = GTGTGTGA; result = -0.0726
Oligonucleotide = GTCCAAAA; result = 0.189
